Experimental data of several laboratories.
Lines come from different studies, so protocols differ. “And” joins repeats or separate records; there may be more than shown.

Structure (SMILES) | organism | test | system | setting | MIC
Oc1c(Cl)cc(Cl)c2cccnc12 | Salmonella enterica | microbial growth, agar dilution | ATCC13311 TYPHIMURIUM |  | 37.4 µM
Cc1c(CN(C)C(=O)/C=C/c2cnc3c(c2)CC(N)C(=O)N3)oc2ccccc12 (stereo not shown) | Klebsiella pneumoniae, Acinetobacter baumannii |  | mouse model strains |  | 16 µg/mL
CC[C@@H](C)[C@@H](NC(=O)[C@@H](C)N)C(=O)N[C@H](CCCCN)C(=O)N[C@@H](C(=O)N[C@H](CCCNC(=N)N)C(=O)N[C@H](CCCCN)C(=O)N[C@H](CC(C)C)C(=O)N[C@H](Cc1ccccc1)C(=O)N[C@H](CCCCN)C(=O)N[C@H](CCCCN)C(=O)N[C@H](CC(C)C)C(=O)N[C@H](CC(C)C)C(=O)N[C@H](CCCNC(=N)N)C(N)=O)[C@H](C)CC | Escherichia coli | broth microdilution checkerboard | ATCC 25922, LB medium | together with: gentamicin | 6.25 µg/mL
CC[C@@H](C)[C@@H](NC(=O)[C@@H](C)NC(=O)[C@@H](CCCCN)NC(=O)[C@@H](CC(C)C)NC(=O)[C@@H](CC(C)C)NC(=O)[C@H](NC(=O)[C@@H](CCCCN)NC(=O)[C@@H](CC(C)C)NC(=O)[C@@H](C)NC(=O)[C@@H](CCCCN)NC(=O)[C@@H](CCCCN)NC(=O)[C@@H](CCCCN)NC(=O)[C@@H](C)NC(=O)[C@@H](CCCCN)NC(=O)[C@@H](CO)NC(=O)[C@@H](Cc1ccccc1)NC(=O)[C@H](NC(=O)[C@@H](CCCCN)NC(=O)[C@@H](CC(C)C)NC(=O)[C@@H](Cc1ccccc1)NC(=O)[C@@H](CO)NC(=O)[C@@H](CCCCN)NC(=O)[C@@H](Cc1c[nH]c2ccccc12)NC(=O)[C@@H](CCCCN)NC(C)=O)[C@H](C)O)[C@H](C)O)C(=O)N[C@H](CO)C(=O)N[C@H](CCCCN)C(N)=O | Acinetobacter baumannii |  | 649, Mueller-Hinton broth | 24 h, 37 °C | 1.3 µM
N#Cc1ccc2cccc(O)c2n1 | Bacillus cereus | microbial growth, agar dilution |  |  | > 1500 µM
COC1C=COC2(C)Oc3c(C)c(O)c4c(c3C2=O)C2=NC3(CCN(CC(C)C)CC3)NC2=C(NC(=O)C(C)=CC=CC(C)C(O)C(C)C(O)C(C)C(OC(=O)Nc2cccnn2)C1C)C4=O (stereo not shown) | Mycobacteroides abscessus | microbial growth | ATCC19977 |  | 0.032 µM
Oc1ccccc1C1Nc2ccccc2C2=[O+][Cu-2]3([Cl])[O]c4ccccc4C=[N+]3N21 (stereo not shown) | Mycobacterium kansasii | broth microdilution | DSM 44162 | 7 days | 128 µg/mL
CC[C@@H](C)[C@@H](NC(=O)[C@@H](C)NC(=O)[C@@H](CCCCN)NC(=O)[C@@H](CC(C)C)NC(=O)[C@@H](CC(C)C)NC(=O)[C@H](NC(=O)[C@@H](CCCCN)NC(=O)[C@@H](CC(C)C)NC(=O)[C@@H](CCCCN)NC(=O)[C@@H](CCCCN)NC(=O)[C@@H](CCCCN)NC(=O)[C@@H](CCCCN)NC(=O)[C@@H](C)NC(=O)[C@@H](CCCCN)NC(=O)[C@@H](CO)NC(=O)[C@@H](Cc1ccccc1)NC(=O)[C@H](NC(=O)[C@@H](CCCCN)NC(=O)[C@@H](CC(C)C)NC(=O)[C@@H](Cc1ccccc1)NC(=O)[C@@H](CO)NC(=O)[C@@H](CCCCN)NC(=O)[C@@H](Cc1c[nH]c2ccccc12)NC(=O)[C@@H](CCCCN)NC(C)=O)[C@H](C)O)[C@H](C)O)C(=O)N[C@H](CO)C(=O)N[C@H](CCCCN)C(N)=O | Acinetobacter baumannii |  | 884, Mueller-Hinton broth | 24 h, 37 °C | 0.6 µM
CC(C=CC(O)=C1C(=O)CNC1=O)=CC(C)C1OC2(C)OC(C(=O)C(O)C2(C)O)C1C (stereo not shown) | Bacillus cereus |  |  |  | > 100 µM
CC[C@@H](C)[C@@H](NC(=O)[C@@H](C)NC(=O)[C@@H](CCCCN)NC(=O)[C@@H](CC(C)C)NC(=O)[C@@H](C)NC(=O)[C@H](NC(=O)[C@@H](CCCCN)NC(=O)[C@@H](CC(C)C)NC(=O)[C@H](NC(=O)[C@@H](CCCCN)NC(=O)[C@@H](CCCCN)NC(=O)[C@@H](CCCCN)NC(=O)[C@@H](C)NC(=O)[C@@H](CCCCN)NC(=O)[C@@H](CO)NC(=O)[C@@H](Cc1ccccc1)NC(=O)[C@H](NC(=O)[C@@H](CCCCN)NC(=O)[C@@H](CC(C)C)NC(=O)[C@@H](Cc1ccccc1)NC(=O)[C@@H](CO)NC(=O)[C@@H](CCCCN)NC(=O)[C@@H](Cc1c[nH]c2ccccc12)NC(=O)[C@@H](CCCCN)NC(C)=O)[C@H](C)O)C(C)C)[C@H](C)O)C(=O)N[C@H](CO)C(=O)N[C@H](CCCCN)C(N)=O | Acinetobacter baumannii |  | 759, Mueller-Hinton broth | 24 h, 37 °C | 0.3 µM
Cc1cc(O)cc2c1C(=O)c1c(cc3oc(=O)cc(-c4ccc(Cl)cc4)c3c1O)C2=O | Bacillus cereus | microbial growth |  |  | 8 µg/mL
Oc1c(Br)cc(Br)c2nc3c(C(F)(F)F)cc(C(F)(F)F)cc3nc12 | Staphylococcus aureus | broth microdilution | MRSA 1707 | 16 h, 37 °C | 0.05 µM
CNC1=C([N+](=O)[O-])C2(C(=O)Nc3ccc(Cl)cc32)C2=C(O1)C(=O)c1ccccc1C2=O (stereo not shown) | Salmonella enterica | microbial growth, broth dilution | TYPHIMURIUM |  | 250 µg/mL
COc1ccccc1NC(=O)OC1C(C)C(OC)C=COC2(C)Oc3c(C)c(O)c4c(c3C2=O)C2=NC3(CCN(CC(C)C)CC3)NC2=C(NC(=O)C(C)=CC=CC(C)C(O)C(C)C(O)C1C)C4=O (stereo not shown) | Mycobacteroides abscessus | microbial growth | ATCC19977 |  | 0.017 µM
CCCCCC1CC2CCCC3CC(C)N=C(N1)N32 (stereo not shown) | Candida krusei | fungal growth | ATCC 6258 |  | 15 µM and 15.9 µM
CCCCCCCCCCCCCCCCCCSCC1OC(OC2C(N)CC(N)C(OC3OC(CN)C(O)CC3N)C2O)C(O)C(N)C1O (stereo not shown) | Salmonella enterica |  | ATCC 14028 |  | > 150 µg/mL
Oc1c(Br)ccc2cccnc12 | Salmonella enterica | microbial growth, agar dilution | ENTERITIDIS |  | 35.7 µM
CC[C@@H](C)[C@@H](NC(=O)[C@@H](C)NC(=O)[C@@H](CCCCN)NC(=O)[C@@H](CC(C)C)NC(=O)[C@@H](C)NC(=O)[C@H](NC(=O)[C@@H](Cc1c[nH]cn1)NC(=O)[C@@H](CC(C)C)NC(=O)[C@H](NC(=O)[C@H](NC(=O)[C@@H](CCCCN)NC(=O)[C@H](NC(=O)[C@@H](C)NC(=O)[C@@H](CO)NC(=O)[C@@H](CCCCN)NC(=O)[C@@H](Cc1ccccc1)NC(=O)[C@H](NC(=O)[C@@H](CCCCN)NC(=O)[C@@H](CC(C)C)NC(=O)[C@@H](Cc1ccccc1)NC(=O)[C@@H](CO)NC(=O)[C@@H](CCCCN)NC(=O)[C@@H](Cc1c[nH]c2ccccc12)NC(=O)[C@@H](CCCCN)NC(C)=O)[C@H](C)O)C(C)C)[C@H](C)O)C(C)C)[C@H](C)O)C(=O)N[C@H](CO)C(=O)N[C@H](CO)C(N)=O | Acinetobacter baumannii |  | 1012, Mueller-Hinton broth | 24 h, 37 °C | 0.7 µM
CC(C)C[C@H](NC(=O)[C@H](CC(N)=O)NC(=O)[C@H](CCCNC(=N)N)NC(=O)[C@@H](CC(C)C)NC(=O)[C@H](Cc1ccccc1)NC(=O)[C@H](CC(=O)O)NC(=O)[C@H](CCCCN)NC(=O)[C@@H](CC(C)C)NC(=O)[C@H](CCCNC(=N)N)NC(=O)[C@H](CCC(N)=O)NC(=O)[C@@H](NC(=O)[C@@H](CC(C)C)NC(=O)[C@H](CCCNC(=N)N)NC(=O)[C@H](CCCCN)NC(=O)[C@H](Cc1ccc(C(F)(F)F)cc1)NC(=O)CN)C(C)C)C(=O)N[C@H](C(N)=O)C(C)C | Enterobacter cloacae | broth microdilution | B2366-12 |  | 25 µM
